Measured values of several laboratories.
A part holds a random share of what one study measured.

Sample 1 — technique: RNA Bind-n-Seq; molecule type: RNA; matrix: in vitro; tested at: 100 nM; baseline: input RNA pool; reading: higher = stronger binding
Target: RING finger protein unkempt homolog, zinc fingers 1-6, SBP tag (UNK, Homo sapiens, UniProt Q9C0B0, residues 30-357)
Chain of UniProt Q9C0B0 (30-357, looked up): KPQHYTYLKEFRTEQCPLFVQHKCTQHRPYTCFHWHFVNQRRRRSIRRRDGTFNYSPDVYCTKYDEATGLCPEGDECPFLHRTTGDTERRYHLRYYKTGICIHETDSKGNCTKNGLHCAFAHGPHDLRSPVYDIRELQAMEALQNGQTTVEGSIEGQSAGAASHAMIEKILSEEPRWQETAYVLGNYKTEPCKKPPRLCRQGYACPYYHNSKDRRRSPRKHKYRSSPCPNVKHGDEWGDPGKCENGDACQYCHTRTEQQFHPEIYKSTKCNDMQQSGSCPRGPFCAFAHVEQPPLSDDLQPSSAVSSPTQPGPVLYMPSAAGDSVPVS
Setting: RNA with constant flanks, vertebrate orthologous sites, ends assumed
Shared flanks, not repeated: GGGAGUUCUACAGUCCGACGAUC … CAACAGAGGAUUGAGCAUCA
Sequence | bound/input enrichment
CAGCCAAUUCUCUUAUUGGACGAGCAGCCCACAUUGCGGUUUUGGACUCUGAAGUAUUUUUGGAAAAGUUCUUUCUUGUUGCUGGUCUCCGAUAUUUCCAAUAGAAGGAAAGCACUGCCA | 0.474 ratio
UACCUUUUGUAGGCCAAAUACCUUCCUUCCACUGCUCUGCCAACUGGAAGCACAGACAACUAGAAUUUCAUUUAUUUUGUUUAAAAAAAUCGAUUUCUUGUAACAUCCAAUAGGAAUGCU | 0.786 ratio
GUUAGGUCAUGACCCUUACAGGCUAGGUCAUGACGCCUACAGGUUAGGGCAGGACCCCUAUAGAUUAGGCCAUGAUCCCUACAGACUAACUCCUGAUCCCUAUAGGAUGUCACCUAGACC | 0.758 ratio
UAUUUUCUUAUUUUAGGUAUCAUUGCCCAGUGCCUAAGAUCUUUUAUGUUCAGCUCACUGUAGGAAAUAAUGAAUUUUUUGGGGAAGGAAAGACUCGGCAAGCUGCUAGACACAAUGCUG | 1.14 ratio
CUAUAUGGGCCUCGCAGAGUUGAAAUAAUGGAAGAGGAAAGUGAACAGUAAUCUUCAUUUUAGUAUUUAUGCUUAGGUGUGAAAUAAAUGUUAUUUGUUGAUCAUUUCUAUAAUCCAGAG | 0.497 ratio
AAUGUGUUUUUAGUUAGUCUUUAGCACAAAACUACCCCCGAUUGUGUUAGAUUUAAAAAUUAGUAGAUUAAUUUCUCUCUGUUGUAUUGCUUUCAUUAUUGAAAAUAAAUAGAACUUUGU | 0.97 ratio
GCCUCCAACAGGCAAAUUCAGGGAGAGGUAGGUUUCAGGGAAUAUAAAUUUACUUAAUAUUAGUGGUCUUUAAGUAUAAACUUGAUGUAAUUGGUUUGGGAGGGGGCAGUGAUGAUGACU | 1.04 ratio
UGGGUUACUCUUAUUAUUAUCAAGUAGCUGGAAUUGUGAAGGUCGGAGUAGUUAGAAUUUUAGCUUUUAUUCCUUUUUUUGUAUUACUAUCCAUGUGUAUAAAUUAUUGAUCAUGUUGCU | 1.65 ratio
AAAUAGUUUUAAGCUUGUUUGCACAGCUUUUUUUUCCAUUGGAAAUGGAAUCCAUUGCCUUAGGUCUUUUUAAAUAGUGUAUUGUUAUCGUCGGGCUGGCUCUACGCUUGAAAUCCAGUU | 1.9 ratio
UCAUUUUUGAUUUUAAUUUUAUUUUAUACAACGUGUAGACAGUUCCCUGUUCUCUGCAUUUAGAAGUAUACACAGUACAACUCUGUUAAUUCUGUAAGUAAUUUUUAUAAUUAUGAUGUA | 0.423 ratio
UCCCACCUGUCUCACUGGCUCUCUGUUCGCUCAGUCCCUCCUUGGGCCUCUUAGGGGUUUUUCCAUUUUGUCCAGUUGGGAUUUUUUUUUAUUUUUUUAAAUUACCGAGAACUUCAAACA | 1.93 ratio

Sample 2 — technique: RNA Bind-n-Seq; molecule type: RNA; matrix: in vitro; tested at: 365 nM; baseline: no-protein control; reading: higher = stronger binding
Target: RNA binding protein fox-1 homolog 2, RRM domain, GST-SBP tag (RBFOX2, Homo sapiens, UniProt O43251-10, residues 100-194)
Setting: natural RNA segment, single round, ends assumed
Shared flanks, not repeated: GGGAGUUCUACAGUCCGACGAUC … UGGAAUUCUCGGGUGCCAA
Target sequence (chain): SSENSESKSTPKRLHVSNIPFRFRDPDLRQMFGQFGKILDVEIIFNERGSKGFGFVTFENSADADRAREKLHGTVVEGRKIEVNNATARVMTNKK
Sequence | RBNS enrichment (R)
UAUUUCCAGCGUUAGAUUGAGGAUGAGGUAGGGAGGUGAUCCAGAGAAGGCGGAGAAGGAAGAAGUAACCUCUGAGUGGCGGCUAUUGCUUCUGUUCCAGGUGCUGUUCG | 0.792
UAAUGUCUGUGGAAAAAAACUAAACAAGUCUCUGUCUCAGUUAAGAGAAAUCUAUUGGUCUGAAGGUUUCUGAACCUCUUUCUGGUUCUCAGCAGAAGUAACUGAAGUAG | 0.449
CAAGUGCUUUACCCCCGAACUACACCUGAAGCUCCAUUCCUUGUCCCUUCUGCACCAUUUAAAGGUGGGAACUAUAUUUUGACUUUAUCUACCUCUGAGAAAGAGGAAAA | 0.558
AGUGCCCUGUGGUGGUGGACACAAUGCAGAACCAGAGCAGCCAGCUCUACGCGGCCCUGCCUGAGAGGCUCUACGUGAUACAGGAGGGCAGGAUCUGCUACAAGGGUAAA | 0.333
UGUACGAAGGCAGGAUCCUGGGCAAAGUGGAGAGGAUCGAUGAGCCUUGGCCUCCUCGGCGUGCAACCUGGGCAAGCACCUCGGCGUGCACCAUGGAGCCGAAGCCCAGA | 0.632
GAGCUUUUACCUUGGAAAAGGUAAAGAUGGAAAUGUACACCAAAAAAGACAAUUUUUACAUUUAAUGGAACAUUCUUUUUUUUUACAAGUAUAUUUUUCUACUGAUAGUU | 0.421
GGAUUUUGAGGUUAUUUUAACCAUGGAAUUAUUUUUAUAGAAGGGGAAAAUGUAUGUGAAAGUCUCUAUUUGUGUAUUUCUCUCCUAAAGUUGUGUCUCUUUGGGAAUUG | 0.871
GGGGCUGGAAGCCGAGCGCAUGCUGGGAGCGGUACUGUCAGAAGUGAGCCCAGUUAGUACCCCGCUGGCUCACUGCACGAGAGAGUCCUGCCCCGAGCCCUAGGUGGGGC | 9.07
AUAAAAUGAUUACCUCUGGUGUUGACAGGUUGAACUUGCACUCUUAAGGAACAGCCAUAACCCUCCGAAUGAUUGCAUUAAUUUCUGACCGCCCUCAGCCCGUUGGAAGC | 0.795
CCAUCUGUGUGUUGUAGCCACUCACUGUUCACAUCGAGUGUCUCUAGUAACUGCCUCUGGACUCGGAACAGUGAGUAGGAUCAAAAUAAAUACUGUACAUGGUGGGGAAU | 0.518
UUGACUUAGGGUCAUAGUACGAGGGGAAUCCACUCCGUGGAAACCUCGGAAUGUCUGAGAAGGGAUAAUUUCAUUUCUAAAAGCUCUGAGCACCGUGAGUUUGAUCUCGA | 0.214
GAUUCCAUAAUGUGGAGACUAGUAACUAGAUCCUAAGGCAAAGAGGUGUUUCUCCUUCUGGAUGAUUCAUCCCAAAGCCUUCCCACCCAGGUGUUCUCUGAAAGCUUAGC | 0.243

Sample 3 — technique: protein binding microarray; molecule type: double-stranded DNA, one strand shown; matrix: in vitro; tested at: not given; baseline: not given; reading: higher = stronger binding
Target: Histone acetyltransferase KAT6A, winged helix 1, GST fusion (KAT6A, Homo sapiens, UniProt Q92794, residues 1-85)
Setting: 8-mer, flanks averaged, mean of 2 arrays, mostly near background
Residues (chain): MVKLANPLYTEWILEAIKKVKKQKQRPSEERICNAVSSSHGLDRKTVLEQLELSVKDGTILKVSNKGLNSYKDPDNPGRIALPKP
Sequence | E-score
CGCCTCAA | 0.103
ACAGGTCG | -0.0246
CGGATTGC | 0.31
AAGCTTAG | -0.0616
CACCACTG | -0.218
AACGATAG | -0.0623
CATGTTCC | -0.0046
TCTCACCA | -0.195
AGCGGGAG | 0.208
CATCTGAA | -0.188
GCGCGACC | 0.394
GATATAAC | -0.00888
AGCAAATG | -0.278
CGGCCACA | 0.173
ACGCAATC | 0.115
AGCTACCT | -0.0131
GAGGGTAA | -0.17
ACCTGGGC | -0.0141
ACTGATGC | -0.0521

Sample 4 — technique: universal PBM; molecule type: double-stranded DNA, one strand shown; matrix: in vitro; tested at: not given; reading: higher = stronger binding
Target: Sal-like protein 4, full length isoform B (SALL4, Homo sapiens, UniProt Q9UJQ4-2, residues 1-616)
Setting: 8-mer, flanks averaged, mean of replicates
Sequence | E-score
CGACGCTC | -0.0632
CTCCAGGA | -0.17
AAACCCTG | -0.00884
CAAACGTA | 0.192
CAAGAAAG | 0.0696
CTAATAAC | 0.327
CGTGCGAG | -0.251
CGTCTACC | -0.105
ATTGTGCG | 0.0481
GCGCAAAC | -0.196
GGCTAAAA | 0.0412
GGACTGCA | -0.139
AGGAGCCG | -0.235
ACTCTGTG | -0.0782
AGTTTCGG | -0.152
GATAGTTA | 0.222
GGAGCCAA | -0.0137
CTTATTCA | 0.164
CAGGCGTA | -0.0132
CTCACGGC | -0.264
ACGAATCC | 0.0625
ATAATGTC | 0.25
CACCCACG | -0.274
ATCATACC | 0.207
GGGACCCC | -0.316

Some of these lines once more (sample 3):
Sequence | E-score
CATCTGAA | -0.188
GCGCGACC | 0.394
GATATAAC | -0.00888
AGCAAATG | -0.278
CGGCCACA | 0.173
ACGCAATC | 0.115
AGCTACCT | -0.0131
GAGGGTAA | -0.17
ACCTGGGC | -0.0141
